Published values collected from several papers.
Parts stem from different laboratories: compare values within a part only. Several values in a cell are separate wells, animals, samples, runs or records.
Sequence of UniProt Q6ZN16 (whole entry, looked up): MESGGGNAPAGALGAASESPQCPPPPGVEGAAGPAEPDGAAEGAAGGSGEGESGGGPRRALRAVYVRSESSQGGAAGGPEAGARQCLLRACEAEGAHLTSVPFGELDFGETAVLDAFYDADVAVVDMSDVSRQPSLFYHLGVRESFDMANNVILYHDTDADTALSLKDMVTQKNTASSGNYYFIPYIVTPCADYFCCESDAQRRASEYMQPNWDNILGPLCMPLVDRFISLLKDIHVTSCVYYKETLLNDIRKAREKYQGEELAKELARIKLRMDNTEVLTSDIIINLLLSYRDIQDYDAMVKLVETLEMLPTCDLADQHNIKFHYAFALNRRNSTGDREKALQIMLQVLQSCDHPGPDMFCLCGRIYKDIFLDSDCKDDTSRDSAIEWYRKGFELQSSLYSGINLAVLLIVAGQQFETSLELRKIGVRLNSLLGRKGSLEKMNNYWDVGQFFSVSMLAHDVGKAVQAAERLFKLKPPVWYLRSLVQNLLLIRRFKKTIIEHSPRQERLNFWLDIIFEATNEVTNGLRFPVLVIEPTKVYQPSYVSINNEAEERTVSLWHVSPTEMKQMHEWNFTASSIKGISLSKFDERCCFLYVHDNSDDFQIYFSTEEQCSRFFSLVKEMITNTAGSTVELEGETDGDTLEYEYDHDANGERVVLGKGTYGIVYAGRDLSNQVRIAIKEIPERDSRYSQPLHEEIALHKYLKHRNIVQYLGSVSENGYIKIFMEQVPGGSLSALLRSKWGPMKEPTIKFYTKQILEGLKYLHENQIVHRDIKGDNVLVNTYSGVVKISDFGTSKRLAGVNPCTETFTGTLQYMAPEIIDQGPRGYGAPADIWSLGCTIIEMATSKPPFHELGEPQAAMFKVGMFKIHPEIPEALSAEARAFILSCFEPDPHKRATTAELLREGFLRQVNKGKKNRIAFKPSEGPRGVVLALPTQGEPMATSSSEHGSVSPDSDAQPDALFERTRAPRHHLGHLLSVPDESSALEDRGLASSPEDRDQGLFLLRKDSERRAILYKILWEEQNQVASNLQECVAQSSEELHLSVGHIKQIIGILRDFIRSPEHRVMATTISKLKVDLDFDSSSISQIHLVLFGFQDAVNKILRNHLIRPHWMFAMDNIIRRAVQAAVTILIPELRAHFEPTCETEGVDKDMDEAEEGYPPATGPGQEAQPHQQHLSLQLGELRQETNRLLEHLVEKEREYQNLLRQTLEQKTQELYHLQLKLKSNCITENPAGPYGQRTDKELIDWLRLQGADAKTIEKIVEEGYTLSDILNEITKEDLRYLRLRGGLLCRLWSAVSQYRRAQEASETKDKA
Sequence of UniProt Q14680 (whole entry, looked up): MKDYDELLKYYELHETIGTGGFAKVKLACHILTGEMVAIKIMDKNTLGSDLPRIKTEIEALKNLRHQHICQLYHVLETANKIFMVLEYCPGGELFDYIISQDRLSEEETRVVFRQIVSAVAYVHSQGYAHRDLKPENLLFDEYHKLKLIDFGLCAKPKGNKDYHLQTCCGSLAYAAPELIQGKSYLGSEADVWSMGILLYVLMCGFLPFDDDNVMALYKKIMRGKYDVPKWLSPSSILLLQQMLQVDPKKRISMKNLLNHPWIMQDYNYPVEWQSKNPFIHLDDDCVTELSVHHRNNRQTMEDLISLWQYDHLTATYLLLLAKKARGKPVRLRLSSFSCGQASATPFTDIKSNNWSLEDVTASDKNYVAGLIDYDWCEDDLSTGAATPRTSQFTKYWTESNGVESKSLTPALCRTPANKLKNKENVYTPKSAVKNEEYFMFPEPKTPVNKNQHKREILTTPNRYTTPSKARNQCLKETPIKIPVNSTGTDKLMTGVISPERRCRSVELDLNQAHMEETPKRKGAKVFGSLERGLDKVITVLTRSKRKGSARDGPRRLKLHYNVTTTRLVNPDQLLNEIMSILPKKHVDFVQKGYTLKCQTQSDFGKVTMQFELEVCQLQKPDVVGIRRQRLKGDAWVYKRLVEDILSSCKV
Sequence of UniProt Q15349 (whole entry, looked up): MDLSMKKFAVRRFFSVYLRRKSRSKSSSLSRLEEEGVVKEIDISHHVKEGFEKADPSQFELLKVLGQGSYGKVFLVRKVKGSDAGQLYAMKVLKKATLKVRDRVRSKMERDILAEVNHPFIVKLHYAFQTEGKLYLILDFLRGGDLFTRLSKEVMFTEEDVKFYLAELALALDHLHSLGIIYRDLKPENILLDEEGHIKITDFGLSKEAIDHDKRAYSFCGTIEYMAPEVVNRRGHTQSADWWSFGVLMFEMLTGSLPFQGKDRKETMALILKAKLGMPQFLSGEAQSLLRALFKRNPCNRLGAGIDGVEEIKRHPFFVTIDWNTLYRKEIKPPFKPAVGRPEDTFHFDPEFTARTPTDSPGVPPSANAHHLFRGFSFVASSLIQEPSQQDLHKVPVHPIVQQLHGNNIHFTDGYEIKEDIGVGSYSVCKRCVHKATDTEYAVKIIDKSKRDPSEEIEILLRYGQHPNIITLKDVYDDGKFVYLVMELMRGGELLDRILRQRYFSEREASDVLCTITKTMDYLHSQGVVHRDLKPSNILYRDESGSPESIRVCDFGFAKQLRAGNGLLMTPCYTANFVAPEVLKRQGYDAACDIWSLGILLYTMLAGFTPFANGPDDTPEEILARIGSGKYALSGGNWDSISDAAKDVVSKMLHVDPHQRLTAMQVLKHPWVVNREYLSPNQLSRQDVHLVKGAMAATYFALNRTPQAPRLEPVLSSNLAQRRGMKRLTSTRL
Sequence of UniProt Q86UX6 (whole entry, looked up): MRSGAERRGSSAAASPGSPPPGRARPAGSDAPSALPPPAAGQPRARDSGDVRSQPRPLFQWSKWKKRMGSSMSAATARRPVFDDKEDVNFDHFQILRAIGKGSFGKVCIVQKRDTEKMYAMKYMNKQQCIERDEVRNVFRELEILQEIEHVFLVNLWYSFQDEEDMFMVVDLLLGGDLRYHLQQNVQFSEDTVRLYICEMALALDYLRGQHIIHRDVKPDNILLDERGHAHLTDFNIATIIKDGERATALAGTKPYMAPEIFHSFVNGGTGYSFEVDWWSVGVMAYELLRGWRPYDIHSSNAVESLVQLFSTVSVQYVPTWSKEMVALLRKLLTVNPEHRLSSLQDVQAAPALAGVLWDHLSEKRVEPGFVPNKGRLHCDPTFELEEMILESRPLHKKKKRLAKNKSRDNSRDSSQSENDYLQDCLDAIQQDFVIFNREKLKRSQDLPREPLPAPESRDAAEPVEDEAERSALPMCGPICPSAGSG
Sequence of UniProt P42681 (whole entry, looked up): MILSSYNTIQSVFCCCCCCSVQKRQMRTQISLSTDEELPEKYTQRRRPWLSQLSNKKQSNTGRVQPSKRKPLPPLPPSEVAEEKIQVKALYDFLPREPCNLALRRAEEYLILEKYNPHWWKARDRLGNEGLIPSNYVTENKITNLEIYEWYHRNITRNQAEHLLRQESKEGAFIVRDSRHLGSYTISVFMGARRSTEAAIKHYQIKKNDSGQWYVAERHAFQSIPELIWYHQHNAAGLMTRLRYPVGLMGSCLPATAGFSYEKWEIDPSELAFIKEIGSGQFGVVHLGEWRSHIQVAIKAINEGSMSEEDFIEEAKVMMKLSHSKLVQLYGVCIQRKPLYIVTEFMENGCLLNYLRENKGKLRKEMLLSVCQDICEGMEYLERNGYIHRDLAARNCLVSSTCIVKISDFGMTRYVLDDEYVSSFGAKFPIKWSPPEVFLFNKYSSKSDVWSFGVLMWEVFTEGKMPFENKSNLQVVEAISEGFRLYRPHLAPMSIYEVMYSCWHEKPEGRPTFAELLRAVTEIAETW
Sequence of UniProt P29597 (whole entry, looked up): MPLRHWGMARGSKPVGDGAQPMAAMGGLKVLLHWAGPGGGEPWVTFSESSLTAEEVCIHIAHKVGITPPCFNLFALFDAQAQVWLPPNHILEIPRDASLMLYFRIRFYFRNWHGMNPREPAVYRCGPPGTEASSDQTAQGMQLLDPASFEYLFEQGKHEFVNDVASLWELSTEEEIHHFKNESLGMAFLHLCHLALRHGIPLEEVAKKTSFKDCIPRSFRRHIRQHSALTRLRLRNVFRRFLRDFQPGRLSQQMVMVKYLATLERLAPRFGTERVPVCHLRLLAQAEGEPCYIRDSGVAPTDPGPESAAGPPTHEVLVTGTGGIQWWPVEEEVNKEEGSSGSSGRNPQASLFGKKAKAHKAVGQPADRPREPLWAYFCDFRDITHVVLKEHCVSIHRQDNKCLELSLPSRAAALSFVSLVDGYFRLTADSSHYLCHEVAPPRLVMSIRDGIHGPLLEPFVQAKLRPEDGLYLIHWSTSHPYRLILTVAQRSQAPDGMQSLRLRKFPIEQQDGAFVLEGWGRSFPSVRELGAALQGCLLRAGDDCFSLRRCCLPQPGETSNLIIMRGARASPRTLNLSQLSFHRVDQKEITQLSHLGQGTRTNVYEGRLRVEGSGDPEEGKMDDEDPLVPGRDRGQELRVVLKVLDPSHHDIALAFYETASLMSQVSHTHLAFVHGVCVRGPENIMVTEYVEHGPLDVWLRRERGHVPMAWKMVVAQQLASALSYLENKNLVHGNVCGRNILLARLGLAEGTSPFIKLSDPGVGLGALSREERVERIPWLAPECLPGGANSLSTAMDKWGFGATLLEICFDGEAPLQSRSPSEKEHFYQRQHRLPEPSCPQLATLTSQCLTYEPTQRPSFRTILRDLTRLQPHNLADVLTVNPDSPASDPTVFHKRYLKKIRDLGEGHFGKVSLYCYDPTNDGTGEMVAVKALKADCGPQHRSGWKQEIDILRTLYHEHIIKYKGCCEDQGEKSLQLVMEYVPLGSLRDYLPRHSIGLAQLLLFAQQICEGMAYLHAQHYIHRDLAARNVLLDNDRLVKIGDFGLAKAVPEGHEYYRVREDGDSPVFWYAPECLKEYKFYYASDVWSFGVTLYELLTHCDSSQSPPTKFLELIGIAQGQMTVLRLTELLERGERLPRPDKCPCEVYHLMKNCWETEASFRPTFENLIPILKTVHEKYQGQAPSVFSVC

Study 1
Structure (SMILES): CC(=O)N[C@@H](Cc1c[nH]c2ccccc12)C(=O)N[C@@H](CCC(=O)C=[N+]=[N-])C(=O)OC(C)C
Host: C57BL/6 CES1-/- mice, MC-38 tumour
Dose: dose not given
Added: anti-PD-1
Relative to: initial
time	body weight
day 59 after inoculation	101% and 91.5% and 104% and 88.9% and 98.7%
day 10 after inoculation	100%
day 88 after inoculation	110% and 104%
day 38 after inoculation	100% and 93.5% and 92.7% and 96.1% and 96% and 97.8%
day 23 after inoculation	96.3% and 97.5% and 98.2% and 91.4% and 98.4% and 97% and 93.5%
day 84 after inoculation	106% and 103%

Study 2
Target: His6 tag
Method: AlphaScreen counter screen
Tested at: concentration not given
Compound	inhibition [%]
CCOC(=O)c1[nH]c2ccc(F)cc2c1NC(=O)c1ccccc1C(=O)O	1.95
COC(=O)c1ccc(CSc2nc3c([nH]c4ccccc43)c(=O)n2C)o1	0.75
CCC(C)(C)C1CCc2sc3nc[nH]c(=O)c3c2C1 (stereo not drawn)	15.6
CNC(=O)c1ccccc1Sc1ccc2c(/C=C/c3ccccn3)n[nH]c2c1	-9.12

Study 3
Cell line: HaCaT
Tested at: 100 µM
Time: 36 h
SMILES	viability [%]
O=C1O[C@H](CO)[C@@H](O)[C@H](O)[C@H]1O	83.5
O=C1CCCC(=O)C1C(=O)c1ccc(C(F)(F)F)cc1[N+](=O)[O-]	98.1
Cc1c(C(=O)Nc2ccc(N3C[C@@H](C)O[C@@H](C)C3)nc2)cccc1-c1ccc(OC(F)(F)F)cc1	16.5
NS(=O)(=O)c1cc2c(cc1Cl)N=C(CSCc1ccccc1)NS2(=O)=O	83.7
C[C@@H](NCCc1ccc(O)cc1)[C@@H](O)c1ccc(O)cc1 (racemic)	88.4
CCCc1nc(C)c2c(=O)[nH]c(-c3cc(S(=O)(=O)N4CCN(CC)CC4)ccc3OCC)nn12	25.2
O=C(c1ccccc1)c1ccc2n1CCC2C(=O)O (stereo not drawn)	8.07

Study 4
Host: mouse
Medium: microsomes or S9
Tested at: 2 µM
Time: 0.5 h
Compound	remaining compound [%]
Cc1cccc(CNC(=O)c2c(OCC(C)C)cc(=O)n3c2CCCCC3)c1	2.42
O=C(NCCCN1CCCC1=O)C1CCCN1c1nnc(N2CCCC2=O)s1 (stereo not drawn)	> 99
Cc1cc(C)c(C)c(OCCCN2CCOCC2)c1	0.421
OCC1(COc2ccccc2-c2nncn2-c2ccccc2)COC1	> 100
Clc1ccc(CCN2CCN(Cc3nc[nH]n3)CC2)cc1Cl	94.8
CN1CCC(N(C)C(=O)c2cc3cc(Br)cc(Br)c3o2)CC1	54.7
CC(=O)N1CCC2(CC1)OC(=O)C(C)=C2C(=O)N1CCN(C)CC1	82.9

Study 5
Cell line: Huh-7
Tested at: 10 µM
Time: 24 h
SMILES	viability [%]
Cn1cc[nH]c1=S	96.3
NC(=O)c1ccc[n+]([C@@H]2O[C@H](COP(=O)([O-])OP(=O)(O)OC[C@H]3O[C@@H](n4cnc5c(N)ncnc54)[C@H](O)[C@@H]3O)[C@@H](O)[C@H]2O)c1	104
O=C(O)CCc1nc(-c2ccccc2)c(-c2ccccc2)o1	102
CCN1CCN(c2cc3c(cc2F)c(=O)c(C(=O)O)cn3C2CC2)CC1	96.4
CC(C)[C@H]1CC[C@H](C(=O)N[C@H](Cc2ccccc2)C(=O)O)CC1	101

Study 6
Compound: O=C1NC(c2ccccn2)Sc2ccccc21 (stereo not drawn)
Tested at: 1 µM
target	effect on	method	remaining binding [%]
Proto-oncogene tyrosine-protein kinase Src (SRC, Homo sapiens, UniProt P12931)	cell-free assay	competition with immobilised ligand	85
Maternal embryonic leucine zipper kinase (MELK, Homo sapiens, UniProt Q14680)	cell-free assay	competition with immobilised ligand	81
Bone morphogenetic protein receptor type-1B (BMPR1B, Homo sapiens, UniProt O00238)	cell-free assay	competition with immobilised ligand	71
Ribosomal protein S6 kinase alpha-6, C-terminal kinase domain (RPS6KA6, Homo sapiens, UniProt Q9UK32)	cell-free assay	competition with immobilised ligand	81
Inhibitor of nuclear factor kappa-B kinase subunit alpha (CHUK, Homo sapiens, UniProt O15111)	cell-free assay	competition with immobilised ligand	100
Serine/threonine-protein kinase 32C (STK32C, Homo sapiens, UniProt Q86UX6)	cell-free assay	competition with immobilised ligand	88
Casein kinase II subunit alpha' (CSNK2A2, Homo sapiens, UniProt P19784)	cell-free assay	competition with immobilised ligand	100
Myosin light chain kinase 2, skeletal/cardiac muscle (MYLK2, Homo sapiens, UniProt Q9H1R3)	cell-free assay	competition with immobilised ligand	100
AP2-associated protein kinase 1 (AAK1, Homo sapiens, UniProt Q2M2I8)	binding	–	100
Serine/threonine-protein kinase 16 (STK16, Homo sapiens, UniProt O75716)	cell-free assay	competition with immobilised ligand	83
MAP/microtubule affinity-regulating kinase 4 (MARK4, Homo sapiens, UniProt Q96L34)	cell-free assay	competition with immobilised ligand	100
Mitogen-activated protein kinase kinase kinase 4 (MAP3K4, Homo sapiens, UniProt Q9Y6R4)	cell-free assay	competition with immobilised ligand	100
Ribosomal protein S6 kinase alpha-2, N-terminal kinase domain (RPS6KA2, Homo sapiens, UniProt Q15349)	cell-free assay	competition with immobilised ligand	97
Tyrosine-protein kinase TXK (TXK, Homo sapiens, UniProt P42681)	binding	competition with immobilised ligand	100
Mitogen-activated protein kinase kinase kinase 15 (MAP3K15, Homo sapiens, UniProt Q6ZN16)	cell-free assay	competition with immobilised ligand	85
Hepatocyte growth factor receptor (MET, Homo sapiens, UniProt P08581, Y1235D)	cell-free assay	competition with immobilised ligand	96
Non-receptor tyrosine-protein kinase TYK2, JH1 (TYK2, Homo sapiens, UniProt P29597)	cell-free assay	competition with immobilised ligand	88
Serine/threonine-protein kinase SBK1 (SBK1, Homo sapiens, UniProt Q52WX2)	cell-free assay	competition with immobilised ligand	100
Serine/threonine-protein kinase D3 (PRKD3, Homo sapiens, UniProt O94806)	cell-free assay	competition with immobilised ligand	100
Activin receptor type-1B (ACVR1B, Homo sapiens, UniProt P36896)	cell-free assay	competition with immobilised ligand	99
Myotonin-protein kinase (DMPK, Homo sapiens, UniProt Q09013)	cell-free assay	competition with immobilised ligand	100
Epidermal growth factor receptor (EGFR, Homo sapiens, UniProt P00533, T790M)	cell-free assay	competition with immobilised ligand	96
Serine/threonine-protein kinase TAO3 (TAOK3, Homo sapiens, UniProt Q9H2K8)	cell-free assay	competition with immobilised ligand	77
Bone morphogenetic protein receptor type-2 (BMPR2, Homo sapiens, UniProt Q13873)	cell-free assay	competition with immobilised ligand	80
Wee1-like protein kinase (WEE1, Homo sapiens, UniProt P30291)	cell-free assay	competition with immobilised ligand	100

A few entries again (study 6):
target	effect on	method	remaining binding [%]
Tyrosine-protein kinase TXK (TXK, Homo sapiens, UniProt P42681)	binding	competition with immobilised ligand	100
Mitogen-activated protein kinase kinase kinase 15 (MAP3K15, Homo sapiens, UniProt Q6ZN16)	cell-free assay	competition with immobilised ligand	85
Serine/threonine-protein kinase D3 (PRKD3, Homo sapiens, UniProt O94806)	cell-free assay	competition with immobilised ligand	100
